Measured values gathered from unrelated publications.
Parts stem from different laboratories: compare values within a part only.

Study 1
Target: Interferon regulatory factor 5, full length, phosphomimetic (IRF5, Homo sapiens, UniProt Q13568-2, residues 1-514, K96S/S451D/S453D/S456D/S462D)
Method: protein-binding microarray
Form: double-stranded DNA, one strand shown
Medium: in vitro
Tested at: 250 nM
Notes: 60-bp whole probe
With: salmon DNA 0.4 mg/ml
Reference: random background probes
Direction: higher = stronger binding
Shared flanks, not repeated: GCCTAGCAC … GTGCTAGGTCTTGATTCGCTTGACGCTGCTG
`TTCGATTTCAGTTTCGATTA` gave a log fluorescence of 10.6 z-score.
The log fluorescence of `GACGGTCGCGGTATCGGGAC` is reported as 0.481 z-score.
`GACGGTATCGGACTGGGCAC` gave a log fluorescence of 0.807 z-score.
`TTAGGTTTGGGACTGGGTTA` has a log fluorescence of -0.231 z-score.
The log fluorescence of `TTAGGTCTGGGACTGGGTTA` is reported as -0.461 z-score.
The log fluorescence of `AATCATTTTAGTTTTCATTA` is reported as 2.66 z-score.

Study 2
Target: POU, POU domain (Salpingoeca helianthica)
Method: Spec-seq
Form: double-stranded DNA, one strand shown
Medium: in vitro
Tested at: not given
Notes: whole probe, mean of replicates
Reference: not given
Direction: lower = stronger binding
Shared flanks, not repeated: GAGTCGTCTCGTCAGCAC … TCCGTAGAGCACTCAGGTC
Construct (chain): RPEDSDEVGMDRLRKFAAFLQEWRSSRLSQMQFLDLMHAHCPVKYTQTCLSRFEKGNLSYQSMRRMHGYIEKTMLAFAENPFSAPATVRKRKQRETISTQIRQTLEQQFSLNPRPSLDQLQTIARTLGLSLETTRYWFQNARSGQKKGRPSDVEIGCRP
`ATGCTTC` — result for “relative binding energy”: 1.16 ln ratio.
`ATTTGAA`: “relative binding energy” 0.664 ln ratio.
`GCTTTAA` — result for “relative binding energy”: 0.247 ln ratio.
Under “relative binding energy”, `ATCCATA` is recorded as 0.933 ln ratio.
`ATTGAAA`: “relative binding energy” 1.07 ln ratio.

Study 3
Target: Histone acetyltransferase KAT6A, winged helix 2, GST fusion (KAT6A, Homo sapiens, UniProt Q92794, residues 85-181)
Method: protein binding microarray
Form: double-stranded DNA, one strand shown
Medium: in vitro
Tested at: not given
Notes: 8-mer, flanks averaged, mean of 2 arrays, mostly near background
Reference: not given
Direction: higher = stronger binding
Target sequence (chain): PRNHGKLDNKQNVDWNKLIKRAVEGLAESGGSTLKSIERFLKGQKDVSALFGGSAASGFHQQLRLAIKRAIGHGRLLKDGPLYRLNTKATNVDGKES
The E-score of `AGAGAAAC` is reported as 0.0495.
For `GATTCTTA`, the E-score was 0.109.
The E-score of `AGGTCTGG` is reported as -0.112.
With `GATTATCA` the E-score was 6e-05.
For `GCGGACAA`, the E-score was 0.195.

Mixed results
For `PhoQ, residues 284 288 289 292 302 303 SSYNSA`, the fold induction was 0.951 (PhoP, residues 12 14 15 18 19 VHSCL (Escherichia coli, UniProt P23836); Sort-seq, refers to: YFP reporter; E. coli; PhoQ-PhoP variant library, with: 10 µM Mg2+; reference: high Mg2+ state, higher = stronger signaling).

For quick reference, copied from above (study 2):
`ATTTGAA`: “relative binding energy” 0.664 ln ratio.
